Measurements collected from several papers.
Parts stem from different laboratories: compare values within a part only.

Block 1
Organism: Saccharomyces cerevisiae
Effect on: binding
Technique: competitive growth deep sequencing
Molecule type: peptide
Strain: cyclin D3-Cln2 fusion strain
Notes: peptide tiling library
Direction: direction not given
Molecule | enrichment score
LFVPQRKLEVSTEDVH | -1.27
ALTMEALEDPSPELME | 1.64
NARRSLNFGGSTGT | -0.499
RNRGPKLNAMLRLGVL | -2.94
NRLLKLFTRCLTPLVP | -2.18
TQERKQIHCLSEDELS | 0.348
EAAPPTQEAQGETEPT | 0.893
RRRIKLPESDSSED | 1.62
ELGMEHCEKFEISETS | 0.992
TLPYDLACTGGDFVLF | 0.858
IPMIAKNLMCELDE | -0.018
VEEEFFALRKRTPSAG | 0.168
SGYLTDENEVGFRG | 0.756
IFNKPECGRVQRAIFQ | -1.26
NCKKRRALDFLSRLPL | -1.26
NLEPNAEFDKRTEFIT | 0.708
VRDLSYRLVFLACCVA | -0.497

Block 2
Target: PABPC1L2, full length, GST fusion (mouse, UniProt A0ABA7IW68)
Technique: RNAcompete
Molecule type: RNA
Medium: in vitro
Concentration: 20 nM
Notes: 7-mer, probes averaged, single round
Relative to: mean of 7-mers
Direction: higher = stronger binding
Strand | 7-mer Z-score
CUUGUUG | -0.481
UUUCGCU | -0.498
UGGAGGG | 0.218
UUCUAGA | -0.168
AAGGUAU | 0.204
AGUACGA | -0.112
ACCGAAC | -0.151
UUUCCUC | -0.472
AAGUGUU | 0.0406
UUGCUGU | -0.364
GUUGUUA | -0.246
AACGAUA | 0.274
AUCAAUC | 0.0279
ACCAACG | 0.00979
UAAGCGA | -0.0917
UUCCAUU | -0.233
CGUACUG | -0.157
CGUUACU | -0.296
AUCAUUG | -0.184
AGACCAC | -0.269
CUAUGCU | -0.213
AUUGCGC | -0.021
ACAAGUU | -0.0264
UGCCAAC | -0.132
UACCAGC | -0.349

Block 3
Target: RNA binding protein fox-1 homolog 2, RRM domain, GST-SBP tag (RBFOX2, Homo sapiens, UniProt O43251-10, residues 100-194)
Technique: RNA Bind-n-Seq
Molecule type: RNA
Medium: in vitro
Concentration: 365 nM
Notes: natural RNA segment, single round, ends assumed
Relative to: no-protein control
Direction: higher = stronger binding
Constant ends, left off below: GGGAGUUCUACAGUCCGACGAUC … UGGAAUUCUCGGGUGCCAA
Construct (chain): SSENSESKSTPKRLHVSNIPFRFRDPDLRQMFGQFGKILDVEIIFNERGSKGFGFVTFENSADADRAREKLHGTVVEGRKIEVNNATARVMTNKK
Strand | RBNS enrichment (R)
GUUGAUGAGGACCCAGAGCUGCUGCACACACUCACCUCUAACCCCCUCCCCUCGCUGCUGGGCCCCAUCUCCACAGGAGAGACUGGUUCAGCUCUAGGGCCUCAGUCUGG | 0.818
CCUCACCUCUGGACUGGCUAGAGUCCUCACUCCCAGUCCAAAUGUCCUCCAGAAGCCUCUGGCUAGAGGCCAGCCCCACCCAGGAGGGAGGGGGCUAUAGCUACAGGAAG | 0.304
CUCUCCAGGUAUGCAGCUCAUAUGCUUGUGUCUGGACUUCCAUUUUCUUACUUCAGGGAGGGGACAGUGGAAAUGCUGCAGGUCUCUGUCUUGGACACUGCAGAGUGCUG | 0.858
UUAUCCAUACCCAUGGAAACUAAAGAGAAGCCUGCCCCAUUUCUUCGUCCUUUGUUUGCCUUUGUGGAAAGACAGAAGGCUGGCCUCCACUCUCAGCUUGCAGGUCUUCG | 3.25
CCUCCUUUUAUUCCUGUUUCCCGAAAUAAGGUAUUUGUAGAGUUAAGGACCUACUGCAUGCCUGUCCCCAGGGCCCCGGUGGAAGGAAGGCAGCGCCUGCUCUUCCUUAA | 3.29
CUGUUAGACAUUGGGUUCUCCUUUACGUUGCCCUAUUGCUUUAAUAACAUCAAGAUCUCUCCUAGUUAAGAGGUGUUUAAUUAAAAAAAAAAAGCAUCUAGGAUAAAUAU | 0.299
CCUGGGUGCUGGAGAGGAAGGAAACAGUUAAAGGGUAGUUACUUGGUAUCCACCUUCAUGAUUUUAACUGACCCAUAACAAUGUUGUCAGCAGUAUAGGACUGUUGAACA | 0.496
GAGUGGGUGCUUGUGUCUGCUGUCUCAGAGGCCUUGGUCAGGAUGAAGUUGGCUGACACAGCUUAGCUUGGUUUUGCUUAUUCAAAAGAGAAAAUAACUACACAUGGAAA | 0.469
UCUGGAAAGAGGCCUCCCUCCCUCCCUUUGUGGAGCCGUCAGUCAUCCCCAAGAUGAGAGGCGAGCAUCCUGCCGAGUGAGCCUGCAGCAACAGCUCCUGAGGAAGGUGC | 0.498
ACUCUCUCAGAGUAAAUGGUGGGAAGGGAUCCCUUUGUAUACUUUUUUAAAUACUACAAAUUAGUGUCAGGCAGUUCCCAGAAAGAGACAAGAAAUCCUAGUGGCCUCCC | 0.335
CCUUGUUUUCCUUGGAAAUUUUGCAAAAUGUUAUGUGAAACAACUUCUAGGGUAAAAACAGCUAUUACUAAUCUCUGCACUGGUCAUUUGAGAAUUUUUUUUGUACAGCA | 2.09
GAAGGCCAGGAAGAAUGGUGUGUUUCCCUAGACUCUGUAACCACCUCUCUGUCUUUUUCCUUCCUGAGAAACGUCCAUCUCUCUCCCUUACUAUUCCCACUUUCAUUCAA | 0.808

Block 4
Target: RING finger protein unkempt homolog, zinc fingers 1-6, GST-SBP tag (UNK, Homo sapiens, UniProt Q9C0B0, residues 30-357)
Technique: RNA Bind-n-Seq
Molecule type: RNA
Medium: in vitro
Concentration: not given
Notes: RNA with constant flanks, ends assumed
Relative to: input RNA pool
Direction: higher = stronger binding
Constant ends, left off below: GGGAGUUCUACAGUCCGACGAUC … CAACAGAGGAUUGAGCAUCA
Target sequence (chain): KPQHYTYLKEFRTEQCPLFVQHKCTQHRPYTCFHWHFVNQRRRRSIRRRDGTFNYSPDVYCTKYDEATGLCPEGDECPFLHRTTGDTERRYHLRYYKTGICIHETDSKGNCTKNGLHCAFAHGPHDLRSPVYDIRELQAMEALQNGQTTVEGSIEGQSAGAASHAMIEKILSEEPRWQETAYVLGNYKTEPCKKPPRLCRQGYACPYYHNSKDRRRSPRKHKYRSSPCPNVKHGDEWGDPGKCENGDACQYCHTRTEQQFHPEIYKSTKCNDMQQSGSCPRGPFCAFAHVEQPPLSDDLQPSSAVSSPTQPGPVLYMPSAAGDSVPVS
Strand | bound/input enrichment [ratio]
UCACCGAACUGCAGCACCCAGGCGUCGCUUUCUGCGGAGCUCUGCUUGCCAGUCAGCGAGCCGCACUCCUUGGAGAGCAAGUUGAACCCUUCGGCCUUGACCUCCGCCACCCGAUUGGGG | 0.0583
AAAGGAAAGGAAGUAGAUAACUUUGUGGACAAAUUAAAAUCUGAAGGUGAAACCAUCAUGUCCUCCCGUAUGGGCAAGCGUACUUCUGAAGCAACCAAAAUGCAUGCUCCACCCAUUAAU | 0.146
GCUGGAUCUUCUAAAUACCAGUGGGGCAUUAUGAAAUCCCUUGGCCUGUCUGAUGAAGAGACCGUAAAAUUUUCUGAAGCAGAACAUUGGCUUGAUUAUUUCCCGCCACUGGCUAUUCAG | 0.102
AGGAUUAAUCUUAAGGAUUGUAUAAUUCAUUAAAGCUGUGGUCUUUCCAUGUGGAGACUGACCGAAAAUAAUUUUGUCCCAAGUCUUAUUUGCUGACUUUUUCUGUCAUGAGUGAGAUUG | 0.123
CGGGGGAUGAGUGACAGAGAGCGUCCUAUGCCUUGGAGACUGUCAUGGCAUAAGCUGUGCCCGCACCUCCUCAGGAAAUGAGAUUGAUUUUUACAACAGCCAAUAACGUUUGCACUUUAU | 0.0951
ACUGAAAAUAAAGAUAUUUACUGGAGAAACGUGAGAGAAAAGUUGUCAGUAGGAGAGAGCAUCCGUUUGGAUGAGUUCAAGUCCUUUUGCCAUUUUACAACGCAUUUGGAAGACUUUGCU | 0.307

Excerpt of the above (block 2):
Strand | 7-mer Z-score
UGGAGGG | 0.218
ACCGAAC | -0.151
CUUGUUG | -0.481
CGUUACU | -0.296
UUUCCUC | -0.472
CGUACUG | -0.157
